Measurements collected from several papers.
Values joined by “and” are separate records of one study, mostly repeats; a detail may differ. ± marks the error that the study gave.

c1ccc(-c2n[nH]cc2-c2ccnc3ccccc23)nc1  log2 fold change (kinase binding, competitor, MIB/MS competition, refers to: YPK1; Candida albicans cell lysate; 10 µM; reference: DMSO): 1.56
COc1cc(Nc2ncc3c(n2)-c2ccc(Cl)cc2C(c2c(F)cccc2OC)=NC3)ccc1C(=O)O  median response score (mouse, OS-1 osteosarcoma xenograft; 20.8 mg/kg; direction not given): 4
COc1ccccc1[C@H](Cn1c(=O)n(C(C)(C)C(=O)O)c(=O)c2c(C)c(-c3ncco3)sc21)OC1CCOCC1  fractional hepatic DNL ([1-13C]acetate infusion, isotopomer analysis; overweight or obese healthy men, plasma VLDL-TG palmitate; oral, 50 mg single dose, 4 h post-dose, with: oral fructose): 5.14 % new palmitate
CC(C)NCC(O)c1ccc(O)c(O)c1 (stereo not shown)  sarcomere length (ventricular cardiomyocytes, C57BL/6 mouse; dose not given, 0.344 s): 1.72 µm
Cc1n[nH]c2ccc(-c3cc(OC[C@@H](N)Cc4ccccc4)cnc3-c3ccoc3)cc12  log2 fold change (kinase binding, competitor, MIB/MS competition, refers to: IRE1; Candida albicans cell lysate; 1 µM; reference: DMSO): 0.0485
Cn1cc(Nc2nc(N)nc(-c3cccc(-n4ccc5cc(C6CC6)cc(F)c5c4=O)c3CO)n2)cn1  inhibition (CD63 upregulation, anti-IgE-induced; human, multiple ascending dose, whole blood basophils ex vivo; 300 mg twice daily, day 14, 2 h): 97.7%
Cc1cnc(N2CC3(CCOCC3)C2)c(C(=O)Nc2ccc(C(=O)N3CCc4cc(C(=O)Nc5c(C)cccc5F)sc4-c4ccccc43)cc2)c1  inhibition (refers to: CXCL8 AUC; human, RSV challenge, plasma; dose not given; reference: placebo): 58%
COc1ccc(-c2cncc(N[C@@H](C)c3cccc(NC(=O)c4cncc(C)c4)c3)n2)cc1OC  fold change (refers to: rno-miR-32-5p; rat SU5416/hypoxia model, lung; dose not given; reference: SU5416/hypoxia vehicle): 0.502
O=C1Nc2cc3[nH]nc(-c4ccncc4)c3cc2CN1Cc1ccccc1  complete response, best response (RECIST v1.1; human, relapsed or refractory advanced solid tumours; intravenous, 4.8 mg/kg, pooled schedules): 0%
C[C@@H]1CCC[C@H](n2cnc(-c3cc(Cl)ccc3-n3cc(Cl)nn3)cc2=O)c2cc(ccn2)-c2c(cnn2C(F)F)NC1=O  concentration for aPTT prolongation (pooled normal human plasma; IC1.2× aPTT, STA-PTT reagent): 90 nM
CN(C(=O)n1cnc(-c2ccc[n+]([O-])c2)c1)C1CCCCC1  AUC(0-t) (refers to: LEA; human, plasma; 20 mg single dose): 342 ng·h/mL
C[C@H]1O[C@@H](O[C@H]2CC[C@@]3(C)[C@@H](CC[C@]4(C)[C@@H]3C=C[C@]35OC[C@@]6(CCC(C)(C)C[C@H]63)[C@@H](O)C[C@]54C)[C@]2(C)CO)[C@H](O)[C@@H](O[C@@H]2O[C@H](CO)[C@@H](O)[C@H](O)[C@H]2O)[C@H]1O  hepatic triglycerides (Mus musculus, pair-fed control, liver; oral, 15 mg/kg/day): 0.0446 mmol/g protein and 0.0527 mmol/g protein and 0.0841 mmol/g protein and 0.0474 mmol/g protein and 0.07 mmol/g protein and 0.0562 mmol/g protein
COC(=O)c1cc(O)c(O)c(O)c1  substrate inhibition constant (glucuronidation kinetics; Wistar rat liver microsomes; M2 formation): 69.9 ± 64.3 µM
COc1cc(C)c(Sc2cnc(NC(=O)c3ccc(N4CCN(CCCCCCCNC(=O)COc5cccc6c5C(=O)N(C5CCC(=O)NC5=O)C6=O)CC4)cc3)s2)cc1C(=O)N1CCN(C(C)=O)CC1 (stereo not shown)  protein level reduction (refers to: GATA-3; HuT78 xenograft, NSG mouse, tumour; intraperitoneal, 50 mg/kg every 8 h): > 90%
NC(=O)c1cnc2[nH]ccc2c1N[C@@H]1[C@@H]2CC3C[C@H]1C[C@@](O)(C3)C2  change from baseline (flow cytometry, refers to: CD8+ memory T cells; Japanese healthy subjects, peripheral blood; oral, 100 mg twice daily, day 7): 0.53%
O[C@H]1CCCN[C@@H]1CCCn1cnc2c(Cl)c(Cl)ccc21  maximum reduction (ELISA, refers to: Pro-C6; healthy human volunteers, serum; 200 mg, day 1, multiple ascending dose): 16.1%
CC(C)C[C@@H](C=O)NC(=O)[C@H](CC(C)C)NC(=O)[C@H](CC(C)C)NC(=O)OCc1ccccc1  degradation rate constant (refers to: Ub(G76V)-GFP; 2.5 µM): 0.0029 min⁻¹
OC(CCN1CCCCC1)(c1ccccc1)C1CC2C=CC1C2 (stereo not shown)  EEG Beta1-power Fz-Cz (resting-state EEG; healthy elderly humans; oral, 4 mg, eyes open, LS mean): 2.8 µV²
N[C@@H](CC(=O)N1CCn2c(nnc2C(F)(F)F)C1)Cc1cc(F)c(F)cc1F  HDL cholesterol (type 2 diabetes patients on metformin, fasting plasma; oral, 100 mg once daily, 28 weeks): 48.9 mg/dL
CCOc1c([C@H](C)n2nc(C)c3c(N)ncnc32)cc(Cl)c(F)c1[C@@H]1CNC(=O)C1  plasma protein level change (Olink proximity extension proteomics, refers to: TNFRSF9; human FL or MZL patients, plasma; dose not given, week 8; reference: baseline): -73%
CSCCNc1nc(SCCC(F)(F)F)nc2c1ncn2[C@@H]1O[C@H](COP(=O)(O)OP(=O)(O)C(Cl)(Cl)P(=O)(O)O)[C@@H](O)[C@H]1O  inhibition (platelet aggregation, light transmission aggregometry; human patients, platelet-rich plasma; dose not given, 1 h, with: TRAP 5 µM): 25.3 ± 27.8%
C[C@@H]1C[C@H]2[C@@H]3CCC4=CC(=O)C=C[C@]4(C)[C@@]3(F)[C@@H](O)C[C@]2(C)[C@@]1(O)C(=O)CO  ear thickness difference (BALB/c mice, oxazolone atopic dermatitis; topical, 20 mg/ear, 264 h, day 11, unit not given; reference: vehicle): -0.22
CC(C)C[C@H](NC(=O)C[C@H](O)[C@H](CC(C)C)NC(=O)[C@H](Cc1c[nH]cn1)NC(=O)CNC(=O)[C@@H](NC(=O)[C@H](C)NC(=O)[C@H](Cc1c[nH]c2ccccc12)NC(=O)[C@H](CCC(N)=O)NC(=O)[C@@H](Cc1ccccc1)NC(=O)COCCOCCNC(=O)CCC(C(=O)O)N1CCN(CC(=O)O)CCN(CC(=O)O)CCN(CC(=O)O)CC1)C(C)C)C(N)=O (stereo partly shown) [lutetium-177 labelled]  tissue uptake (female BALB/c nu/nu mice, bone; intravenous, 50 pmol, 1 h): 0.1 ± 0.08 %ID/g
NC(=O)CCNC(=O)c1ccc([C@H]2[C@@H](F)[C@@H](F)C[C@@H](F)[C@H]2F)cc1  hepatic clearance (liver microsome stability; dog liver microsomes; 1 µM): 7.3 mL/min/kg
N#Cc1ccc2c(c1)[C@H]1CCCN(C(=O)c3ccc4[nH]cnc4c3)[C@H]1C2  change from baseline (refers to: LDL; human; 240 mg once daily, day 28, adjusted mean): -3.18 mg/dL
O=C(O)CSc1nnc(Br)n1-c1ccc(C2CC2)c2ccccc12  blood urea nitrogen (mouse, chronic hyperuricaemia model, serum; dose not given): 12.4 mM and 8.74 mM and 11.2 mM and 15.5 mM and 19.9 mM and 12.5 mM
C[C@H]1C[C@H]2CSC(N)=N[C@@]2(c2nc(NC(=O)c3ccc(OC(F)F)cn3)cs2)CO1  percent change from baseline (refers to: Aβx-40; healthy adults, plasma; 275 mg once daily, day 1; reference: placebo): -70.4%
N#Cc1ccc2c(-c3ccncc3)c(-c3ccc(F)cc3)nn2c1  log2 fold change (kinase binding, competitor, MIB/MS competition, refers to: MKK2; Candida albicans cell lysate; 1 µM; reference: DMSO): 0.155
O=C(O)CNC(=O)Cc1ccccc1  sarcomere length (ventricular cardiomyocytes, C57BL/6 mouse; dose not given, 0.352 s): 1.72 µm
N#CC[C@H](C1CCCC1)n1cc(-c2ncnc3[nH]ccc23)cn1  ear thickness difference (Balb/c mice, oxazolone atopic dermatitis; day 14, unit not given; reference: vehicle): -0.214
CN(C)C(=O)Nc1cccc(-c2ccc(N(C)C)cc2)c1  change in visceral fat (MRI; mouse, high-fat diet; dose not given): 0.246 g and -0.734 g and -0.00229 g and -0.499 g and 0.223 g
C[C@H](Oc1ccc(Br)cc1-c1ccon1)C(=O)O  peak amplitude change (muscle velocity recovery cycles; human, tibialis anterior muscle; 1200 mg single dose, 3.5 h post-dose, frequency ramp, last response at 30 Hz; reference: placebo): -11%
CCOc1c([C@H](C)n2nc(C)c3c(N)ncnc32)cc(Cl)c(F)c1[C@@H]1CNC(=O)C1  AUC(0-last) (patients, monotherapy; oral, 15 mg once daily, cycle 1 day 1): 3.73 ± 0.678 µM·h
CN[C@@H](C)C(=O)N[C@H]1CN(S(=O)(=O)c2cccc(S(=O)(=O)N3CC[C@H]4CC[C@@H](C(=O)NC(c5ccccc5)c5ccccc5)N4C(=O)[C@@H](NC(=O)[C@H](C)NC)C3)c2)CC[C@H]2CC[C@@H](C(=O)NC(c3ccccc3)c3ccccc3)N2C1=O  maintenance monotherapy duration (human; 20 mg): 8 months
CCO  maximal mean DBP decrease (supine; concentration not given, 0 to 4 h; reference: baseline): 13.7 mmHg
CC(C(=O)Nc1ccc(C2CCCCC2)cc1)n1cncn1 (stereo not shown)  hepatic clearance (cynomolgus liver microsomes; 1 µM): 25 mL/min/kg
N#Cc1ccn2c(-c3ccncc3)c(-c3ccc(F)cc3)nc2c1  log2 fold change (kinase binding, competitor, MIB/MS competition, refers to: CAK1; Candida albicans cell lysate; 1 µM; reference: DMSO): 0.178

For quick reference, copied from above:
CC(C)NCC(O)c1ccc(O)c(O)c1 (stereo not shown)  sarcomere length (ventricular cardiomyocytes, C57BL/6 mouse; dose not given, 0.344 s): 1.72 µm
COC(=O)c1cc(O)c(O)c(O)c1  substrate inhibition constant (glucuronidation kinetics; Wistar rat liver microsomes; M2 formation): 69.9 ± 64.3 µM
COc1cc(Nc2ncc3c(n2)-c2ccc(Cl)cc2C(c2c(F)cccc2OC)=NC3)ccc1C(=O)O  median response score (mouse, OS-1 osteosarcoma xenograft; 20.8 mg/kg; direction not given): 4
